Published values of several laboratories.
A part holds a random share of what one study measured.

Block 1 — method: RNA Bind-n-Seq; molecule type: RNA; matrix: in vitro; concentration: 200 nM; notes: whole 134-nt RNA, ends assumed; together with: 150 mM LiCl; baseline: input library; direction: higher = stronger binding; all molecules: 7-deaza-guanosine replaces G
Target: Fragile X messenger ribonucleoprotein 1, C-terminal low-complexity region (Fmr1, Mus musculus, UniProt P35922)
All sequences stand within: GGGAGUUCUACAGUCCGACGAUC … UGGAAUUCUCGGGUGUCAAGG
| Sequence | log2 enrichment |
| --- | --- |
| GUCCUGUGCUACACAUCGUAUGUACCGAAUCGGGAAAGGGUUUUUUUGGGUUUUUGGGAAAGUAUUAUGUUACGCCGUUCGGAUCUGCAC | -2.18 |
| UAACUUUAGAGGAGGAUCUGAUGGAUAUGGCAGUCGACGUGGAUUUGGGGAUGGCUAUAAUGGGUAUGGAGGAGGACCUGGAGGUGGCAA | -0.211 |
| UGAUCAGCAAAGCCAAGAUGAGCCUUUGAGAAGCAGAAAAGUGUUUGUGGGGCGCUGUACAGAGGACAUGACUGAGGAUGAGCUGCGGGA | -1.98 |
| GCAGGAAGUAAAAACAAAUGGAAAUGCUUCGGAUAGUGGCAGGGGUGGGGGUUGCUAAGGAAAGGGUGGGAUGGCAGUGGGUAAAGAGUU | 1.62 |
| UAACUUUAGAGGAGGAUCUGAUGGAUAUGGCAGUGGACGUGGAUUUGGGGAUGGCUAUAAUGGGUAUCGAGGAGGACCUGGAGGUGGCAA | 0.144 |
| UGGCCCUGGUGGCAUGCGGGGAGGAAGAGCUGGCCUCAUGGAUCGUGGUGGUCCCGGUGGAAUGUUCAGAGGUGGCCGUGGUGGAGACAG | -0.0784 |
| UGGCCCUGGUGACAUGCGGGGAGGAAGAGGUGGCCUCAUGGAUCGUGGUGGUCCCGGUGGAAUGUUCAGAGGUGGCCGUGGUGGAGACAG | -0.65 |
| AGUCCUGUGCUACACAUCGUAUGUACCGAAUCGGGGAAAAGGGAAAAGGAAAAGGGGAAAGUAUUAUGUUACGCCGUUCGGAUCUGCACU | -0.663 |
| CUCAAGUCCUGUGCUACACAUCGUAUGUACCGAAUCGGGUUGGGGUUGGUUGGAAAGUAUUAUGUUACGCCGUUCGGAUCUGCACUUCCA | -0.151 |
| GUCCUGUGCUACACAUCGUAUGUACCGAAUCGGGGUUUUUGGGGAAAGGGGAAAGGGGAAAGUAUUAUGUUACGCCGUUCGGAUCUGCAC | 0.506 |
| CCUGUGCUACACAUCGUAUGUACCGAAUCGGGAAAAAAAGGGAAAAAAAGGGUUUUUGGGAAAGUAUUAUGUUACGCCGUUCGGAUCUGC | -1.98 |

Block 2 — method: RNA Bind-n-Seq; molecule type: RNA; matrix: in vitro; concentration: 365 nM; baseline: no-protein control; direction: higher = stronger binding
Target: RNA binding protein fox-1 homolog 2, RRM domain, GST-SBP tag (RBFOX2, Homo sapiens, UniProt O43251-10, residues 100-194)
Notes: natural RNA segment, single round, ends assumed
All sequences stand within: GGGAGUUCUACAGUCCGACGAUC … UGGAAUUCUCGGGUGCCAA
Target sequence (chain): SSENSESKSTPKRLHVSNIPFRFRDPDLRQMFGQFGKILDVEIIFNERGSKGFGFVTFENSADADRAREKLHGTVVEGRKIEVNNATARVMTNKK
| Sequence | RBNS enrichment (R) |
| --- | --- |
| GCCAACGUAGCUGAUGCUCAGGGUCAGGCCUCGCCCCUUCGCCGCAGGUCUCAGGAUCGGGGAUAACAUCGCUCCCACCCUGCUCAUUUAGAGAUGGGAAACAAGCAAGA | 0.379 |
| ACAGAAUGUGUUCUUUGUCCUUUUCCAGCCCUGCUCUUCUCUGGGAAGAUACAGGAGUCUGCCACCUGUCAUAGAAGGGUGCUGCCAACUUGAUGCUCUACCUGCCACCA | 0.403 |
| CUGGGCACAGCUCUGCGUUGCUCCCGUGCUGCCUGCGCCAGCCCCAGGCUGCUGAGGAGCAGAGGCCAGACCAGGGCCGAUCUGGGUGUCCUGACCCUCAGCUGGCCCUG | 0.215 |
| CCACUUCUCGUUGCUGCUCUGUGGCACAUAUCGGAAGCAGUACAGCGCGCGGCUCUACACGCUUGGGUAGCGGGAUAAGUCACUGUUUUCUUUAUUUCUUUAAAAAAAAA | 0.302 |
| GAAUGGUUUUAUCUCCAAGGUGAUACCAAAAACGAGUCAUGGACGACAGGCCUGGCCUCACACGCCAGAUCCAAAAUGUUGACCUGGACAAUCUGUCCCUGGUGCCCAUG | 0.184 |
| UGCCAAUCCUGUCCCUGAAGCAGGGGGAGGCACAGAUUGUCCGUGGGAGUGAGUCAGUGUCUGGGAGUGGGGUAGGCAGCUUCCAUUAGGGUCCUUUUCCUUCACCAGCA | 0.589 |
| GAAGCCCAAGGAACUGUGAGCAAUUAAAAGCAAACCGCGACACCCUUUGUCUCCACCACACAUAGUGUACUUUGGAAGCACAACGUCCAGGCUGGUACCGCAGCGCCAUG | 0.262 |
| UCCCAGUUUGUCCUUUCUUGUCCAUACCUACACACACCUGCAGCGGGGGUCUGGGGAACAUGUGGGCUAUGGCUCUGCUACCCCGUAGGACACACUGGGUCACUGGCAUG | 1.22 |
| CAGGAAACAUUUCUCUUGUAAUUUAAGAAAGUUAAGUCUAUAAACCAGCAUCAAGUGAUGUCUAGCCUCCCCUGUGCAAUACAGCUAGUUGUAUUUGUUGUGUUUAAGAA | 0.653 |
| CUGCCCGCUGGGGACCAGUUCCCACGAGCCUGUCACACCCCAGUCCUGUGUUACAAUUUUUCGUUUGGUCUUAGGUCUUCCCAUGGCUCCCUCUCUCCUGGACUGGUUAU | 0.279 |
| AAAUAUUACAUUUCAUUACUGCUUCAUGAAGACAGAAAGUAAUUGAAACUUAAACAUAUAAAAACAUCUAACUGCUUUGUCCUUUUUUAAUUUCAAUAUGUUUAUACUGG | 0.614 |
| UCCUGUGACGGGAGGGAUGGUUAAGGUACAAAGGCUAGAAACUUGAGUUUCUUCAUUUCUGUCUCACAAUUAUCAAAAGCUAGAAUUAGCUUCUGCCCUAUGUUUCUGUA | 0.344 |

Block 3 — method: protein-binding microarray; molecule type: double-stranded DNA, one strand shown; matrix: in vitro; concentration: 0.8 µM; notes: whole 60-bp probe, no competitor; direction: higher = stronger binding; all sequences stand within: … GTCTTGATTCGCTTGACGCTGCTG
Target: Centromere-binding protein 1, full length, N-terminal tag (CBF1, Saccharomyces cerevisiae, UniProt P17106, residues 1-351)
UniProt P17106, sequence (whole entry, looked up): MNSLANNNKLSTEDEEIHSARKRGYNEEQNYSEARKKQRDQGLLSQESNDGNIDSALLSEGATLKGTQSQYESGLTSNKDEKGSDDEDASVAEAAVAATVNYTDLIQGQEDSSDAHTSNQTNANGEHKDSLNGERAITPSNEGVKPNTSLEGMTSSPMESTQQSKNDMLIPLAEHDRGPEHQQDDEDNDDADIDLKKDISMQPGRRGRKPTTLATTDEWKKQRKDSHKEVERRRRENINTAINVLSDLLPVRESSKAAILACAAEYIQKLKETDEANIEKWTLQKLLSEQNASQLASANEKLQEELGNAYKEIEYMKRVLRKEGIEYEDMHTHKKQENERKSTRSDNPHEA
| Sequence | fluorescence intensity [a.u.] |
| --- | --- |
| GAATCTTTCTGTGGTCACGACGGTAGCCTCAACTAG | 1110 |
| GAAAAGAACGGTGTCCACATGGTCTTCGCTTCTTAG | 694 |
| CTATACAGCACAAATCACGCGTATTTTCAAGCATTC | 812 |
| GAACCCTGAAAATGTGGTGTGGTTACTAAGCAGTAG | 528 |
| CTATAGTAGCAGGGTGACATGTTACTCCCACACTTC | 525 |
| CTAACTTGAAAGAATCTCACCTGGAGAATGGGTTTC | 498 |
| GAATCATATCTTTCCCACGTGGCCTTAACTACGTAG | 5540 |
| GAAAAGATCAAATGTTACGTGGTGTTGAAGAAATAG | 585 |
| CTACTATCTGAACTGCACGTTTAAATTTTTACCTTC | 624 |
| CTAAATCTCTAAGTACACGTGCATTTGGACCTATTC | 5150 |
| CTATCTTTTCTATCTCACCTGTTTATATATTGCTTC | 688 |
| CTACGCTGCGAAGGTGACGTAGCAATCCAAAAATTC | 509 |
| CTAAGTGTTAGATCTGAGGTGGTGTTCACATTATTC | 538 |
| CTAGATAATGTCTCACTCGTGCAGTCACATCTCTTC | 571 |
| TGTACGAAGCTATGACACGAGGATATAGTAGTTAGG | 664 |
| CTAAGTGGTCGCACATACACCACCTTCTTTTTTTTC | 522 |
| CTAATGCACCTGGTGCACGCTGCGAAGGTGACGTTC | 829 |
| CTACATGGTGGAAAGTAGGTGACCCTTTGAACATTC | 538 |
| GAAATGATCCTGGTTCATGATCAGTACTATGATTAG | 512 |
| CTAAAGCTAATCGTGCACGTAAACAACAATCTATTC | 532 |
| GAAAAGAATGTTTGTGACTTCTGCTTCAAATGCTAG | 553 |
| GAAAGCTTATTCCCGCACGCTCACATGGTAATTTAG | 1180 |
| CTAGCGAAAAGATGTCACACGTCAGTAAATCCGTTC | 849 |
| GAAACAAATAGTTAGCATCAGGGAATTTGTATTTAG | 508 |
| CTAGAGCACTACCATGACGTCATTAACGTAAAATTC | 511 |

Block 4 — method: protein-binding microarray; molecule type: double-stranded DNA, one strand shown; matrix: in vitro; concentration: 2200 nM top; notes: 60-bp whole probe; together with: salmon DNA 0.4 mg/ml; baseline: random background probes; direction: higher = stronger binding; all sequences stand within: GCCTAGCAC … GTCTTGATTCGCTTGACGCTGCTG
Target: Interferon regulatory factor 7, full length, phosphomimetic (IRF7, Homo sapiens, UniProt Q92985, residues 1-503, S471D/S472D/S475D/S476D/S477D/S483D/S484D/S487D)
Residues (chain): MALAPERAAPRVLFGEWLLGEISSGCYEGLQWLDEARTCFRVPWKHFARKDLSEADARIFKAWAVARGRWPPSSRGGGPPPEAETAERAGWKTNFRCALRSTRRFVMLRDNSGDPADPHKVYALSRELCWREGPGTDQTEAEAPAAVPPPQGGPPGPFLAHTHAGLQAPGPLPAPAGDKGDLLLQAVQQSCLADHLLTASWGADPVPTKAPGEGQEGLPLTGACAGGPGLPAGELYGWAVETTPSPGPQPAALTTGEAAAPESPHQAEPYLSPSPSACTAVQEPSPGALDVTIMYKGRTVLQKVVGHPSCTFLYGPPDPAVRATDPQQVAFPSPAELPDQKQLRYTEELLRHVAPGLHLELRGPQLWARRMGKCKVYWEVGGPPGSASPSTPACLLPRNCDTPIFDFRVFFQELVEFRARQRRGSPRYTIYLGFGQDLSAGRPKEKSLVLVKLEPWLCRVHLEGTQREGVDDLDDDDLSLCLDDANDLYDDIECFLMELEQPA
| Sequence | fitted relative affinity [z-score] |
| --- | --- |
| TCACCTCTAGACTCTAAAACTGTGCTA | 0.812 |
| TTCGGTTTCGGTTCCGGTTAGTGCTAG | 13.7 |
| GACGATTCCAGTTTCGAGATGTGCTAG | 4.57 |
| TCAAAATTATCTTTAATACTGTGCTAG | -0.683 |
| TTAGATTTAAGTCTCGATTAGTGCTAG | -0.214 |
| TCATTATTAGTGACTCAGACTGTGCTA | 0.318 |
| GACGGGCTGCTTATCCTGACGTGCTAG | -0.302 |
| GACGAACTGGGGTATAGAGACGTGCTA | 0.2 |
| GACGGTTTCATTCTCCTGACGTGCTAG | 3.88 |
| TCATTTCTGTTTTTGCTACTGTGCTAG | 4.02 |
| GACGAGCTCAGTTTCGAGACGTGCTAG | 3.26 |
| GACGGTATCGGACTGGTGACGTGCTAG | -0.156 |
| GACGCTATCGGGTTTCGGGACGTGCTA | 1.84 |
| GACGTTTTCGACTTTCGGGACGTGCTA | 8.41 |
| GACGGTTTCGGACTAGGGACGTGCTAG | 3.35 |
| GCCGGTATCGACTATCGGGACGTGCTA | 0.0917 |
| TTAGATCTCAGACTGGTTTAGTGCTAG | 0.111 |
| TTAGGACTGTTACTGCTTTAGTGCTAG | 0.296 |
| TTAGTACTGGGTTTCGGTTAGTGCTAG | 4.64 |
| TTAGGTATCATTTTCCTTTAGTGCTAG | 2.17 |
| TTGGATCTCAGTATCGATTAGTGCTAG | 0.62 |
| GACGGTTTCGGTTCCAGGACGTGCTAG | 11 |
| TTTGCTTTCTTTTTGCACTCGTGCTAG | 5.88 |
| TAAGGACTGGGTATCGGTTAGTGCTAG | -0.273 |
| TTAGGTTTCCTTTCCCTTAAGTGCTAG | 4.36 |

Some of these lines once more (block 1):
| Sequence | log2 enrichment |
| --- | --- |
| UGAUCAGCAAAGCCAAGAUGAGCCUUUGAGAAGCAGAAAAGUGUUUGUGGGGCGCUGUACAGAGGACAUGACUGAGGAUGAGCUGCGGGA | -1.98 |
| GCAGGAAGUAAAAACAAAUGGAAAUGCUUCGGAUAGUGGCAGGGGUGGGGGUUGCUAAGGAAAGGGUGGGAUGGCAGUGGGUAAAGAGUU | 1.62 |
| UAACUUUAGAGGAGGAUCUGAUGGAUAUGGCAGUGGACGUGGAUUUGGGGAUGGCUAUAAUGGGUAUCGAGGAGGACCUGGAGGUGGCAA | 0.144 |
| UGGCCCUGGUGGCAUGCGGGGAGGAAGAGCUGGCCUCAUGGAUCGUGGUGGUCCCGGUGGAAUGUUCAGAGGUGGCCGUGGUGGAGACAG | -0.0784 |
| UGGCCCUGGUGACAUGCGGGGAGGAAGAGGUGGCCUCAUGGAUCGUGGUGGUCCCGGUGGAAUGUUCAGAGGUGGCCGUGGUGGAGACAG | -0.65 |
| AGUCCUGUGCUACACAUCGUAUGUACCGAAUCGGGGAAAAGGGAAAAGGAAAAGGGGAAAGUAUUAUGUUACGCCGUUCGGAUCUGCACU | -0.663 |
| CUCAAGUCCUGUGCUACACAUCGUAUGUACCGAAUCGGGUUGGGGUUGGUUGGAAAGUAUUAUGUUACGCCGUUCGGAUCUGCACUUCCA | -0.151 |
